Published values of several laboratories.
Each numbered part is a random draw from the data of one study; scales do not carry over between parts.

Series 1
Target: RNA binding protein fox-1 homolog 2, RRM domain, GST-SBP tag (RBFOX2, Homo sapiens, UniProt O43251-10, residues 100-194)
Method: RNA Bind-n-Seq
Molecule type: RNA
Matrix: in vitro
Tested at: 365 nM
Setting: natural RNA segment, single round, ends assumed
Baseline: no-protein control
Reading: higher = stronger binding
Constant ends, left off below: GGGAGUUCUACAGUCCGACGAUC … UGGAAUUCUCGGGUGCCAA
Residues (chain): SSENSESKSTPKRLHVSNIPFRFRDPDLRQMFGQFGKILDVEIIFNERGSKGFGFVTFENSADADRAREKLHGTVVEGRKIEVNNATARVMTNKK
Strand | RBNS enrichment (R)
AGAGGAGUCAGAGAGAGAGAGGAGUCAGAAGGUGGCCGGAGUUAUCAUUGGGUCCCCUGAGCUCCAUGAAGGACCCUCUGUUGUCCCCUUGAUGAUUUAUCAGGCAUGAG | 0.77
GCUCCAGACAGACUUACAGAUGCCUUCCUUAGGAGUUCUUGCUUCUUGCGUUGAUACUUUGCCCCAGAAAGGCCUGGGAUUCAUUCUGGUUCUUAUCAGGGUGUGUCCAC | 0.221
GUGAGAAUGCUGCAUCUUUCUACAUAUCUUCAUGAGAAUACUGAGAAUUGGAUUUUCCUUUUCAAAAUGCACUUUGCUUUUUUUGUAUGUUUUGUUAUGUUGAGAUGUUU | 2.3
CUAUGGACCUCAGGGCACUCUCCGUGCUGCCCACAAAGACUUGGGUGGAAAAGACUCAAAGGCACUUGGGCCAUUCAGGACCACCCCAGCUGUGUCUGGGUUGGUGGGGA | 0.228
AGGUUUAUGACUCUGAAGACCAGAGGACAGCAGGCUUUAAGAGGGCUUAAAUUGGGAGUCAAGGACUAUAGUCAGGAGACCCCCAGGUACCUGGUUCAGAGCAGUCCGGG | 0.237
AAUUAAUGACACUGAAGGAAUGAUGCAAAAACUUCCCAUGAUUCAUCACUGAAAAUAUGACUAAUAAAUGUCUCUUCCUUUUUCUUCCUGUCUCCAUCCCCAUGCCUUGU | 1.17
UCAACUGCUUUACUAAGGAGCAAUGUUGUCCUGCGCCGGCACACUCAAGAUGUAUCUGAGUAGCUGCCUGAAAGCAGAUGACACUGCAGUCAGGAGGUGAGAGGCUGAGG | 0.238
CCAAAAACAGAAAACAUGAUGUUGACUCAUGUAAUUUAGUCCAUUUUAGCAGAGCCUUUAGUGUUAACACCAGUGGCGAGGAGCAUUGCAUAUUCUCUGUCAGCAGCAGC | 0.771

Series 2
Target: Interferon regulatory factor 7, full length, phosphomimetic (IRF7, Homo sapiens, UniProt Q92985, residues 1-503, S101K/S471D/S472D/S475D/S476D/S477D/S483D/S484D/S487D)
Method: protein-binding microarray
Molecule type: double-stranded DNA, one strand shown
Matrix: in vitro
Tested at: 250 nM
Setting: 60-bp whole probe
Together with: salmon DNA 0.4 mg/ml
Baseline: random background probes
Reading: higher = stronger binding
Constant ends, left off below: GCCTAGCAC … GTCTTGATTCGCTTGACGCTGCTG
Target sequence (chain): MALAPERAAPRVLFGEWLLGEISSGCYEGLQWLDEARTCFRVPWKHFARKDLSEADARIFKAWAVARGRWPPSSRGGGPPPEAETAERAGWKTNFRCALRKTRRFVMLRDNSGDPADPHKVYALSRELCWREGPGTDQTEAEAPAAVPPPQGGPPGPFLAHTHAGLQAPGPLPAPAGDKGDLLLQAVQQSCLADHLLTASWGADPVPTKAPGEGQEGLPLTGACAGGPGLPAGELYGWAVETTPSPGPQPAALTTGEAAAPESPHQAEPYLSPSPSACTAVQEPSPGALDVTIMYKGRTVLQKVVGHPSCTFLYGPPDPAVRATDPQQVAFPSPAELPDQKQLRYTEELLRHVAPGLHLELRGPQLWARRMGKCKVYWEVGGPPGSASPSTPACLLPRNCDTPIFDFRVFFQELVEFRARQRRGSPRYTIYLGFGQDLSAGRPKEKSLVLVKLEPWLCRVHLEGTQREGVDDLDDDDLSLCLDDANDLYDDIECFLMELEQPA
Strand | log fluorescence
TTGGGTTTCGGTATCGGTTAGTGCTAG | 9.5 z-score
GGCGGTATCGGGTTTCGGGACGTGCTA | 3.57 z-score
TTAGGATTCGGACTGGGTTAGTGCTAG | 0.43 z-score
GACGGTCTCGGACTGGGGACGTGCTAG | 0.247 z-score
TCACCTCCAGGTTCTCTGACTGTGCTA | -0.162 z-score
TTAGGACTGCACTTTCGGTTAGTGCTA | 1.46 z-score
TTCACTTTAAATTAGACTTAGTGCTAG | 0.644 z-score
TTAGGTATCGGGTATCGGTTAGTGCTA | 1.67 z-score

Series 3
Cell line: HEK-293T
Read-out: pseudovirus infection
Method: FDA-approved drug library screen
Organism: VSV pseudotyped with SARS-CoV-2 spike
Tested at: 10 µM
Time: 16 h
Baseline: vehicle-treated
Compound | GFP-positive cells [%]
CC[C@H]1OC(=O)[C@H](C)[C@@H](O[C@H]2C[C@@](C)(OC)[C@@H](O)[C@H](C)O2)[C@H](C)[C@@H](O[C@@H]2O[C@H](C)C[C@H](N(C)C)[C@H]2O)[C@](C)(O)C[C@@H](C)C(=O)[C@H](C)[C@@H](O)[C@]1(C)O | 86.6
Oc1ccc(OCc2ccccc2)cc1 | 65.2
O=c1[nH]c(=O)n([C@H]2C[C@H](O)[C@@H](CO)O2)cc1C(F)(F)F | 76.9
CC1=C(/C=C/C(C)=C/C=C/C(C)=C/C(=O)O)C(C)(C)CCC1 | 80.6

Series 4
Target: Histone acetyltransferase KAT6A, winged helix 1, GST fusion (KAT6A, Homo sapiens, UniProt Q92794, residues 1-85)
Method: protein binding microarray
Molecule type: double-stranded DNA, one strand shown
Matrix: in vitro
Tested at: not given
Setting: 8-mer, flanks averaged, mean of 2 arrays, mostly near background
Baseline: not given
Reading: higher = stronger binding
Residues (chain): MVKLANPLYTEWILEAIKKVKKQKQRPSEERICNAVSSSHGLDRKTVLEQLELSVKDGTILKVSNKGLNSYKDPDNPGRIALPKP
Strand | E-score
ACATCCTA | -0.117
AATATCCT | -0.155
GAGGGACC | 0.0155
CACTATCC | -0.0793
CCGGCGCC | 0.456
ACAGGCCG | 0.132
GAGATCGA | -0.0769
GCTGTTGA | -0.00186

Series 5
Organism: SARS-CoV-2
Read-out: cytopathic effect
Cells: Vero E6
Tested at: 10 µM
Structure (SMILES) | inhibition
O=c1c2ccccc2sn1-c1ccccc1 | -29.8%
CC1=C(CC(=O)O)c2cc(F)ccc2/C1=C\c1ccc([S+](C)[O-])cc1 (stereo not drawn) | 4.2%
O=C1/C(=C/c2ccc([N+](=O)[O-])cc2)CS(=O)(=O)C/C1=C\c1ccc([N+](=O)[O-])cc1 | -46%
COc1ccc(OC)c2c(=S)c3ccccc3[nH]c12 | -2.6%

Series 6
Target: Replicase polyprotein 1ab, polymerase (rep, Severe acute respiratory syndrome coronavirus 2, UniProt P0DTD1)
Read-out: enzyme activity
Action: inhibitor
Tested at: 20 µM
Compound | inhibition [%]
O=S(=O)(O)CCSSCCS(=O)(=O)O | 2.4
Nc1ncnc2n[nH]c(Nc3ccc(F)cc3)c12 | -4.27
S=C(S)O[C@@H]1C[C@@H]2C[C@@H]1[C@H]1CCC[C@@H]21 | -9.36
Cc1c(C(=O)NCc2cccnc2)nn(-c2ccc(Cl)cc2Cl)c1-c1ccc(Cl)cc1 | 0.72
Nc1ccn([C@H]2CO[C@@H](CO)S2)c(=O)n1 | -0.76
CCOC(=O)C(C)Oc1cccc2c(=O)n(CC(=O)Nc3ccc4c(c3)OCCO4)ccc12 (stereo not drawn) | -3.32
Cc1nc2ccccc2n1Cc1ccc(Cl)cc1 | 1.87
Cc1cc2nc3c(=O)[nH]c(=O)nc-3n(C[C@H](O)[C@H](O)[C@H](O)CO)c2cc1C | 15.7
Cc1nn(C)c2c1C(c1ccc(C(F)(F)F)cc1)C(C#N)=C(N)O2 (stereo not drawn) | 6.56
COC(=O)N(C)c1c(N)nc(-c2nn(Cc3ccccc3F)c3ncccc23)nc1N | 0.09
C[C@H](N)C(=O)N[C@@H](C)P(=O)(O)O | 2.48
Cc1cc(NC(=O)Nc2ccc(F)c(F)c2)n(-c2ccccc2)n1 | 3.93
CN(C)Cc1c(C(=O)NCCOc2ccc(C(=O)NO)cc2)oc2ccccc12 | 4.69
CNC(=O)c1ccccc1Nc1nc(Nc2ccc(N3CCOCC3)cc2OC)ncc1Cl | -17.5
CN1c2ccccc2C(=O)N2CCc3c([nH]c4ccccc34)C21 (stereo in doubt) | -1.48
Cc1cc(SCc2sc(-c3ccc(C(F)(F)F)cc3)nc2C)ccc1OCC(=O)O | 0.93
CC(=Nc1ccccc1N)c1c(C)cc(=O)n(O)c1O | -4.43
O=C(/C=C\n1cnc(-c2cc(C(F)(F)F)cc(C(F)(F)F)c2)n1)N1CC(F)(F)C1 | -1.09
NCCCC(=O)O | -1.49
O=C(O)[C@H](O)[C@@H](O)[C@H](O)[C@H](O)CO | -1.19
C[C@@H](NCc1cc(Br)cc2[nH]c(=O)c(=O)[nH]c12)P(=O)(O)O | 1.68
Cc1c(C(=O)Nc2ccc(N3C[C@@H](C)O[C@@H](C)C3)nc2)cccc1-c1ccc(OC(F)(F)F)cc1 | 1.06
c1ccc(CNc2ncnc3[nH]cnc23)cc1 | 0.77
CC(COc1ccccc1Cc1ccccc1)N1CCCCC1 (stereo not drawn) | 93.3
COc1cc(N2CCC(N)CC2)ccc1Nc1ncc(Cl)c(-c2c[nH]c3ccccc23)n1 | 25.8

Repeated from above (series 4):
Strand | E-score
GAGATCGA | -0.0769
GCTGTTGA | -0.00186
CACTATCC | -0.0793
GAGGGACC | 0.0155
ACATCCTA | -0.117
AATATCCT | -0.155
CCGGCGCC | 0.456
ACAGGCCG | 0.132
